# Published values gathered from unrelated publications.
# Each numbered part is a random draw from the data of one study; scales do not carry over between parts. Substitutions count along the parent as printed.

# Block 1 — method: DHFR PCA, deep sequencing; matrix: yeast; added: (+)-ABA 200 µM; relative to: wild-type fitted maximum; reading: higher = stronger binding
# Target: ABI1, truncated, D143A, DHFR fusion (Arabidopsis thaliana)
# Notes: methotrexate growth selection, single substitutions
# Starting sequence: PYL1, truncated, DHFR fusion (Arabidopsis thaliana); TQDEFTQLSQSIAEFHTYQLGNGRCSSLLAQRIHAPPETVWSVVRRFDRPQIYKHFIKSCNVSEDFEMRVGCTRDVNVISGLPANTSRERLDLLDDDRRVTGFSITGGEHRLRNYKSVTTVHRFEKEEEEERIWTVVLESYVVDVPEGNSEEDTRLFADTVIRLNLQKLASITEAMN; partner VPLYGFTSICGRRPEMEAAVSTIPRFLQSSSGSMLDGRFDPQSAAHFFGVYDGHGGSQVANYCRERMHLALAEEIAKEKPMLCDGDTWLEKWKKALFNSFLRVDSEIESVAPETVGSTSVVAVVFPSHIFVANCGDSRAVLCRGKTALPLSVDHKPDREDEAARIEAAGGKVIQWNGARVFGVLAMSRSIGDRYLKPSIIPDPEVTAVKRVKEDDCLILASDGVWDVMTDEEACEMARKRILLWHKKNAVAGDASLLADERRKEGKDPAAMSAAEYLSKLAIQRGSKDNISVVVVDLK
Substitution,relative binding score
D48K,40.6%
G108V,5.81%
E127I,98.6%
F124K,88.4%
F157R,1.38%
R113W,82.2%
C25M,89.8%
L8V,88.1%
S11R,83.6%
N61G,92.6%
P50L,-2.56%
A158T,101%
V142S,94.2%
R74G,4.21%
A170T,83%
K54A,-6.22%
H55N,102%
A30S,106%

# Block 2 — method: competition protein-binding microarray; form: double-stranded DNA, one strand shown; matrix: in vitro; tested at: 2 µM; added: Pho4 competitor, 0.05 µM; reading: higher = stronger binding
# Target: Centromere-binding protein 1, full length, His-tagged (CBF1, Saccharomyces cerevisiae, UniProt P17106, residues 1-351)
# Chain of UniProt P17106 (whole entry, looked up): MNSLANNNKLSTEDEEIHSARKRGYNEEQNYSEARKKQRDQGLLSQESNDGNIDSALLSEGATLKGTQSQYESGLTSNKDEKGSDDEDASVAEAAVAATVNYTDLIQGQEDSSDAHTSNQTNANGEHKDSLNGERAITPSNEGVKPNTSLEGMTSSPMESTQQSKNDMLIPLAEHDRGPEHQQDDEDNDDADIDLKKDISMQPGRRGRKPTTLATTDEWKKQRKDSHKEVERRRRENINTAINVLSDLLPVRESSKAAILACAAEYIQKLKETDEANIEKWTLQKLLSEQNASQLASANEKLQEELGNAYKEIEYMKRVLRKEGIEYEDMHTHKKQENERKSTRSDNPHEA
# Notes: whole 60-bp probe, lowest competitor level
Oligonucleotide,fluorescence intensity
AAATTACTAAGTTGCATTGTGGGTGACGCCGTATGAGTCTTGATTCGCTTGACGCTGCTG,77.5 a.u.
CTTTTGTCCAAGTTCCACGTGTCCAAAAATTGGAAAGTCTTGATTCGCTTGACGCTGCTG,1870 a.u.
CATACCCAACCTTATCACGTGTTTTAAGATATTTGTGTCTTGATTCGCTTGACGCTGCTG,5450 a.u.
GTCCACTCCCGCACTCACGTGTTCCCGCCTTGCCCTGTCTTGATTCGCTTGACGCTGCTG,1450 a.u.
CGGGGTTAAGTTTGAATTGTGGGTGGCTTGCAGCAGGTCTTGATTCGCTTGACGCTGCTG,70.7 a.u.
CAAGATAGGGAGAGCCACGTGATAGACTGGGGAGAGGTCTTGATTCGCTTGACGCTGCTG,2410 a.u.
CTAACGAAGGTTTGGTCTGTGGGTGACAAGCCAAGTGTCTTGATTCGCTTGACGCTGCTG,63.6 a.u.
CTAACGAAGGTTTGCTGGGTGGGTGACAAGCCAAGTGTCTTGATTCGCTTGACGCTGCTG,75 a.u.
TTGAGGATCATCCAACACGTGCGATAACGTATCGACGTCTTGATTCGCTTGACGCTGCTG,1150 a.u.
GAAGGTTCCCGGTCCGTTGTGATGGGAAGATCTGACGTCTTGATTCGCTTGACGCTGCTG,61 a.u.
TTTGTGCAGCACAATCACCTGTGGTTACTGGAGAATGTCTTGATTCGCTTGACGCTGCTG,81.2 a.u.
TTGGCCGATTAAGAACCCGTGAGAACCACCAGAGAAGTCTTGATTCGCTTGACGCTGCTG,116 a.u.
AACTTTGAGCTTCCTCACGTGGAACATAAGATAGATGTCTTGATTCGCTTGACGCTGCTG,809 a.u.
GGACGAGAAATACACAGATTCAGTAAGATTTGTGAGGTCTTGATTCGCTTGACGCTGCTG,76.8 a.u.
TTGTGTGTATGGTTCCACGTTTCTGCCTTGTGCTTTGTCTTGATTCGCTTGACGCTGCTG,86.8 a.u.
ATCTTGTGAAACTCCGTCGTGCTTTGGATAGAGCCTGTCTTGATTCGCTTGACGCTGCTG,84 a.u.
GGATACCTCCGCCGTCATATGATAATAATGTTCGTTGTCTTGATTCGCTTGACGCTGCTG,135 a.u.
TGGCCTAAGATGAAGGTCGTGCTTTTTGTTCAATTGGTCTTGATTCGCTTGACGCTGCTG,63.1 a.u.
TATATTTCTTTCCATCACGTGCTTTAAAAATAATTAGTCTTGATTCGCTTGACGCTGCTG,11000 a.u.

# Block 3 — method: Sort-seq; measured: YFP reporter; matrix: E. coli; notes: PhoQ-PhoP variant library; added: 10 µM Mg2+; relative to: high Mg2+ state; reading: higher = stronger signaling
# Molecule: PhoQ, residues 284 288 289 292 302 303 TYGVAM
target,fold induction
"PhoP, residues 12 14 15 18 19 STHWV (Escherichia coli, UniProt P23836)",11.7
"PhoP, residues 12 14 15 18 19 QYCSL (Escherichia coli, UniProt P23836)",1.74
"PhoP, residues 12 14 15 18 19 SHWTV (Escherichia coli, UniProt P23836)",1.25

# Block 4 — method: aptamer microarray, sandwich; form: DNA with 2'F-ANA; matrix: in vitro; tested at: 200 nM; added: Cy3 exosite-II aptamer, 400 nM; reading: higher = stronger binding; oligonucleotide: GGTTGGTGTGGTTGG
# Target: Prothrombin, mature alpha-thrombin (F2, Homo sapiens, UniProt P00734)
# Notes: whole 15-mer aptamer, many near background
Modification,mean fluorescence intensity [a.u.]
2'F-ANA at 1 6 8 9 10 11 12 13 14,110
2'F-ANA at 1 3 4 5 9 10 13 14 15,49.3
2'F-ANA at 3 4 7 8 9 10 11 12 13 14 15,203
2'F-ANA at 1 2 3 11 12,372
2'F-ANA at 2 4 7 9 12 13 14,111
2'F-ANA at 2 3 4 5 7 8 11 12 13 14 15,54.6
2'F-ANA at 2 3 6 8 9 11 13 15,526
2'F-ANA at 6 11 14 15,161
2'F-ANA at 2 3 4 6 7 10 11 14,144
2'F-ANA at 1 4 7 9 10 13 15,47.4
2'F-ANA at 3 7 8 11 12 14 15,783
2'F-ANA at 1 2 7 8 9 10 13,49.4
2'F-ANA at 1 2 4 5 7 9 11,67.1
2'F-ANA at 1 2 3 6 7 8 11 13 15,185
2'F-ANA at 1 2 3 4 5 8 10 14,75.5
2'F-ANA at 1 2 6 10 11 12 13 14 15,48.1
2'F-ANA at 4 5 6 8 9 13,51
2'F-ANA at 3 4 5 7 8 9,127
2'F-ANA at 1 5 6 8 10 15,70.8
2'F-ANA at 1 2 5 6 8 9 10 12 13 14 15,60
2'F-ANA at 3 5 6 7 10 12 13 15,56.5
2'F-ANA at 1 2 3 8 9 12,516
2'F-ANA at 2 3 6 10,372
2'F-ANA at 2 4 5 7 11 12 13,76.7
2'F-ANA at 3 5 6 7 8 10 11 14 15,51.5

# Block 5 — method: protein-binding microarray; form: double-stranded DNA, one strand shown; matrix: in vitro; tested at: 250 nM; notes: 60-bp whole probe; added: salmon DNA 0.4 mg/ml; relative to: random background probes; reading: higher = stronger binding; shared flanks, not repeated: GCCTAGCAC … GTCTTGATTCGCTTGACGCTGCTG
# Target: Interferon regulatory factor 7, full length, phosphomimetic (IRF7, Homo sapiens, UniProt Q92985, residues 1-503, S101K/S471D/S472D/S475D/S476D/S477D/S483D/S484D/S487D)
# Chain of UniProt Q92985 (whole entry, unmodified, looked up): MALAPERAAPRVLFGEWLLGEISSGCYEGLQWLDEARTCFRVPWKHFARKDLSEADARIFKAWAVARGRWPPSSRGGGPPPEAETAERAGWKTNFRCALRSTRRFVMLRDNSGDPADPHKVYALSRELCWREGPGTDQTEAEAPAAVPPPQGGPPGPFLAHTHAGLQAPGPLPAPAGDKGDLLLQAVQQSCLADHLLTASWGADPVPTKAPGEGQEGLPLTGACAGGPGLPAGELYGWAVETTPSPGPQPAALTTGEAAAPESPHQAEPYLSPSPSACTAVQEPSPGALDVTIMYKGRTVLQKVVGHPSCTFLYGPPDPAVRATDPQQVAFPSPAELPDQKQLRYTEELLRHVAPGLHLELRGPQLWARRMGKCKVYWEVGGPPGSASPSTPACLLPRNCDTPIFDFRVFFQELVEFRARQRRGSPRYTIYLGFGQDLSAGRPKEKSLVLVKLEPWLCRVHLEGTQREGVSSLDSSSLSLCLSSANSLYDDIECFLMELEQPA
Oligonucleotide,log fluorescence
TTAGGAATGCTTTTCCTTTAGTGCTAG,0.952 z-score
GACGAACTGAGACTGAAGACGTGCTAG,0.15 z-score
TAAGATTTCAGTTCCGATTAGTGCTAG,2.29 z-score
TCAGTCTTGGTTCTCAGACTGTGCTAG,1.01 z-score
ACATCTCTCTTAAATAGGGACGTGCTA,0.76 z-score
TCAGGGCTCTCTTCTGCTACTGTGCTA,-0.384 z-score
TATCAGGGCATCCCCTTGAAGTGCTAG,-0.551 z-score
GACGAACTGAGTATCGATACGTGCTAG,0.428 z-score
TTCCTTCTTGAACTCTTTACGTGCTAG,1.7 z-score
GAGAGAGCTTGTCTGCAGCCGTGCTAG,-1.28 z-score
GACGGTTTCGATCTCGGGACGTGCTAG,9.29 z-score
TGCTCTCCGGGGTCTGTGAGGGTGCTA,-0.293 z-score
TTAGATATCAGTTTAGATTAGTGCTAG,0.445 z-score
TTAGAACAGAGTTTCGATTAGTGCTAG,7.92 z-score
GACGATTTCCTTTCCCTGACGTGCTAG,1.43 z-score
TTAGGTTTCCTTTCCCTTGAGTGCTAG,4.47 z-score
GACGGATTGGGTTTCGGGACGTGCTAG,1.81 z-score

# Block 6 — target: CCNF, cyclin fold, Cln2 fusion (human); method: yeast growth competition, sequencing; matrix: yeast; notes: strong parent motif; relative to: not given; reading: higher = stronger binding
# Starting sequence: INSM1 docking peptide (human); PKAIRKLHFEDEV; partner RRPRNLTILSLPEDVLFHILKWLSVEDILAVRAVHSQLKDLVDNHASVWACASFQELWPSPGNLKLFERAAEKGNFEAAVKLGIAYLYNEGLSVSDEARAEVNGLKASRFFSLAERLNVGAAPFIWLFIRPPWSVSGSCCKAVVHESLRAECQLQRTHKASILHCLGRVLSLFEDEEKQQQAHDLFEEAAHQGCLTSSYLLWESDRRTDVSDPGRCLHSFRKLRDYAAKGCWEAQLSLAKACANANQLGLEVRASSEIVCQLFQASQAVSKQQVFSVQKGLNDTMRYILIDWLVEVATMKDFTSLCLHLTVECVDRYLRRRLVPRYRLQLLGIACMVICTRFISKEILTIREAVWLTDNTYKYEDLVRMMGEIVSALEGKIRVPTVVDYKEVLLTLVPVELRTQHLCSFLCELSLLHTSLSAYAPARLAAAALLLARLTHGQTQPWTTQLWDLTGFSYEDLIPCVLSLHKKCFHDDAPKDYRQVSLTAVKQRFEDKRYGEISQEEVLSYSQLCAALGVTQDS
Substitution,normalised enrichment score
PKAIRKLHFEYEV [D11Y],7.53
PKSIRKLHFEDEV [A3S],5.69
PKAIRKLHFEDCV [E12C],7.86
PKAIRKLHEEDEV [F9E],0.0394
PKAGRKLHFEDEV [I4G],7.13
PKAIPKLHFEDEV [R5P],-0.435
PKAIRKLAFEDEV [H8A],6.83
PKAIRKLHAEDEV [F9A],-0.288
PKAIRKLHFENEV [D11N],7.75
PKAIRKLHFTDEV [E10T],7.61
PKAIRVLHFEDEV [K6V],6.36
PKAIRHLHFEDEV [K6H],6.23
PKAIRKFHFEDEV [L7F],-0.149
PKAIRGLHFEDEV [K6G],2.76
PFAIRKLHFEDEV [K2F],7.29
PKAIRKRHFEDEV [L7R],0.0384
PKAIRKLHFEDFV [E12F],7.99
PKAIRILHFEDEV [K6I],5.54
PKAIGKLHFEDEV [R5G],0.382
PKIIRKLHFEDEV [A3I],7.04
